Assay results of several laboratories.
Lines come from different studies, so protocols differ. Values joined by “and” are separate records of one study, mostly repeats; a detail may differ. Numbers after ± are the reported error.
Genome polyprotein NS3 helicase domain: Genome polyprotein, NS3 helicase domain (Hepatitis C virus genotype 1b, UniProt Q9WMX2)
WD repeat-containing protein 91 WD40 domain, residues 392–747: WD repeat-containing protein 91, WD40 domain, residues 392–747 (Homo sapiens, UniProt A4D1P6)

| Compound | tested on | test | system | setting | scale | measurement | result |
| --- | --- | --- | --- | --- | --- | --- | --- |
| FC(F)=Cc1cc(C(F)(F)F)cc(C(F)(F)F)c1 | – | reaction with N-acetyl-lysine, HPLC-MS | – | pH 10.2, with: N-α-acetyl-lysine | – | pseudo-first-order rate constant | 0.5 h⁻¹ |
| CC[C@@H](C)[C@@H](NC(=O)[C@@H](Cc1ccc(O)cc1)NC(=O)[C@H]1CCCN1C(=O)[C@@H](CCCNC(=N)N)NC(=O)[C@H](N)Cc1c[nH]cn1)C(=O)N[C@H](C)C(=O)N[C@H](Cc1c[nH]cn1)C(=O)N[C@H](CCCNC(=N)N)C(=O)N[C@@H](C(=O)N[C@H](Cc1ccc(O)cc1)C(=O)N[C@H](CO)C(=O)N[C@H](Cc1ccccc1)C(N)=O)C(C)C | Transferrin receptor protein 1 (Tfrc, Mus musculus, UniProt Q62351) | flow cytometry | DC2.4 | 24 h, pH 6, replicate 2, unit not given | reference: 0 h | surface TFRC expression | 0.987 |
| CC(=O)N(C(=O)c1cc(C(F)(F)F)cc(C(F)(F)F)c1)c1ccccc1 | – | reaction with N-acetyl-lysine, HPLC-MS | – | pH 10.2, with: N-α-acetyl-lysine | – | pseudo-first-order rate constant | 2.6 h⁻¹ |
| CC(NC(=O)CCCc1ccc2ccc3cccc4ccc1c2c34)C(=O)NO (stereo not shown) | HDAC8 (Homo sapiens, UniProt Q9BY41) | ITC | Tris-HCl buffer | 283 K | – | TΔS° | 7.3 kcal/mol |
| C[C@]12CC[C@@H]3c4ccc(O)cc4C[C@@H](CCCCCCCCC[S+]([O-])CCCC(F)(F)C(F)(F)F)[C@H]3[C@@H]1CC[C@@H]2O (stereo partly shown) | Genome polyprotein NS3 helicase domain | DNA binding, inhibitor | hepatitis C virus | 100 µM, with: Cy5-dT15 DNA | – | inhibition | 0% |
| O=Cc1c(O)cc(C(F)(F)F)cc1C(F)(F)F | – | reaction with N-acetyl-lysine, HPLC-MS | – | pH 10.2, with: N-α-acetyl-lysine | – | pseudo-first-order rate constant | 0 h⁻¹ |
| CC(C)=CCC/C(C)=C/CC/C(C)=C/COP(=O)(O)OP(=O)(O)O | Sphagneticola trilobata | β-caryophyllene formation, substrate | – | 10 min, 35 °C | – | Km | 5.01 µM |
| COc1ccccc1CNCCCCCCNCCCCCCCCNCCCCCCNCc1ccccc1OC.Cl.Cl.Cl.Cl | Genome polyprotein NS3 helicase domain | DNA binding, inhibitor | hepatitis C virus | 100 µM, with: Cy5-dT15 DNA | – | inhibition | 11% |
| Nc1nc2c(ncn2[C@@H]2O[C@H](COP(=O)(O)O)[C@@H](O)[C@H]2O)c(=O)[nH]1 | GUK1 (Homo sapiens, UniProt Q16774, Y81A) | enzyme activity, NADH-coupled | – | 2000 µM | – | reaction rate | 6.19 s⁻¹ and 6.55 s⁻¹ and 4.91 s⁻¹ |
| N#CC1CCN(C(=O)c2ccc(NS(=O)(=O)c3ccc4c(c3)OCCO4)cc2)CC1 | WD repeat-containing protein 91 WD40 domain, residues 392–747 | binding, SPR single-concentration screen | – | 45 µM | – | SPR response | -0.2 RU and -4.9 RU |
| O=C(OCc1ccccc1)c1ccccc1O | Thuja plicata | enzyme activity, substrate, UPLC-UV/MS | – | 10 min, pH 7, 25 °C | – | Km | 51.4 ± 10.8 µM |
| N#CC1CCN(C(=O)c2ccc(Cn3cc(-c4ccc5c(c4)NCCO5)nn3)cc2)CC1 | WD repeat-containing protein 91 WD40 domain, residues 392–747 | SPR | – | 45 µM | – | binding | -41% and -21% |
| C#Cc1ccc(C(F)(F)F)cc1C=O | – | reaction with N-acetyl-lysine, HPLC-MS | – | pH 10.2, with: N-α-acetyl-lysine | – | pseudo-first-order rate constant | 3 h⁻¹ |

Repeated from above:
| Compound | tested on | test | system | setting | scale | measurement | result |
| --- | --- | --- | --- | --- | --- | --- | --- |
| CC[C@@H](C)[C@@H](NC(=O)[C@@H](Cc1ccc(O)cc1)NC(=O)[C@H]1CCCN1C(=O)[C@@H](CCCNC(=N)N)NC(=O)[C@H](N)Cc1c[nH]cn1)C(=O)N[C@H](C)C(=O)N[C@H](Cc1c[nH]cn1)C(=O)N[C@H](CCCNC(=N)N)C(=O)N[C@@H](C(=O)N[C@H](Cc1ccc(O)cc1)C(=O)N[C@H](CO)C(=O)N[C@H](Cc1ccccc1)C(N)=O)C(C)C | Transferrin receptor protein 1 (Tfrc, Mus musculus, UniProt Q62351) | flow cytometry | DC2.4 | 24 h, pH 6, replicate 2, unit not given | reference: 0 h | surface TFRC expression | 0.987 |
